# Results gathered from unrelated publications.
# Parts stem from different laboratories: compare values within a part only.

# Set 1
# Target: Phosphate system positive regulatory protein PHO4, full length, GST-tagged (PHO4, Saccharomyces cerevisiae, UniProt P07270, residues 1-312)
# Technique: competition protein-binding microarray
# Form: double-stranded DNA, one strand shown
# Sample: in vitro
# Concentration: 2 µM
# Setting: whole 60-bp probe, lowest competitor level
# With: Cbf1 competitor, 0.05 µM
# Direction: higher = stronger binding
# Constant ends, left off below: … GTCTTGATTCGCTTGACGCTGCTG
# Residues (chain): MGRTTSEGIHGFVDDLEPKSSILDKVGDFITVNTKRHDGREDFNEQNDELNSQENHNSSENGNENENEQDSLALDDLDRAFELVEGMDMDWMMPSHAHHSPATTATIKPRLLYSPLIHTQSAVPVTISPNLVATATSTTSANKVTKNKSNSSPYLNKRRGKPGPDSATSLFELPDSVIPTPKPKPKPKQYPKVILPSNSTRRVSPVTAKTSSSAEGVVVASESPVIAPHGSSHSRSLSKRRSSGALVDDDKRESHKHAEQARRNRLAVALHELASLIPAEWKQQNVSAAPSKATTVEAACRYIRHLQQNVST
Sequence,fluorescence intensity
AAATTACTAAGTTGTTACGTGGGTGACGCCGTATGA,5750 a.u.
CATCATGAAAAGGTCCACGTTGCTGTCGCTGGACGC,12000 a.u.
AAAGATTTGATAAAGCACGTGTCGGATTAGATGCTT,20000 a.u.
AGCAGAAGAAAACATACCGTGCGATATAGTACCTGG,6120 a.u.
CACATAAGGATAATTCACCTGCCAAGACGGCACAGG,4470 a.u.
TGAGCGCTGAAGAAACACATGACGACTTGAAAAAAG,7290 a.u.
TCACTCTGCCTTCATCACATGCTTTTTTCTATGGTT,9560 a.u.
CGGGGTTAAGTTTGTGAGGTGGGTGGCTTGCAGCAG,5130 a.u.
AGGCTCTTTCACTTCAGCATGACAGTAGTCCACTCT,3870 a.u.
AACGGTGCCGGCCGTCACGCTAACGTTTCCACCAAG,4980 a.u.
CATTGGTGTCGTCATCACCTGATGCAGTTGGAGTCG,4210 a.u.
TCTTGTTCGGCCGGTAGCGTGCCGATTCAGGTAACG,7070 a.u.
TGTAAATATATCCATCACGTGAAATTAGTGGCGAGG,12700 a.u.
CTTCTGTAAATTTGTCACCTGACTTGACGCGCCCCG,3630 a.u.
CTAACGAAGGTTTTTCACGTGAGTTACAAGCCAAGT,10900 a.u.
GCCGCAAAATCCTCCATCGTGCTTTATATTTCGTCT,10100 a.u.
CTAACGAAGGTTTTTCACGTGACCTACAAGCCAAGT,10500 a.u.
GTCTTGTCTCATTGCCACGTGTTTTTCCCCACTTCA,16600 a.u.
CTTTCCCGATCTTGAAACGTGGGTGTAGCACATTTG,13200 a.u.
TCCTGAATCAATAAGAAGGTGATGGGGTAGTTCGTC,3680 a.u.
ACTATGAGAGCTTGGTGCGTGGCCGAAAGGAATAAA,9490 a.u.

# Set 2
# Target: ATP-dependent RNA helicase DDX3X, helicase core (DDX3X, Homo sapiens, UniProt O00571, residues 132-607)
# UniProt O00571, sequence (132-607, looked up): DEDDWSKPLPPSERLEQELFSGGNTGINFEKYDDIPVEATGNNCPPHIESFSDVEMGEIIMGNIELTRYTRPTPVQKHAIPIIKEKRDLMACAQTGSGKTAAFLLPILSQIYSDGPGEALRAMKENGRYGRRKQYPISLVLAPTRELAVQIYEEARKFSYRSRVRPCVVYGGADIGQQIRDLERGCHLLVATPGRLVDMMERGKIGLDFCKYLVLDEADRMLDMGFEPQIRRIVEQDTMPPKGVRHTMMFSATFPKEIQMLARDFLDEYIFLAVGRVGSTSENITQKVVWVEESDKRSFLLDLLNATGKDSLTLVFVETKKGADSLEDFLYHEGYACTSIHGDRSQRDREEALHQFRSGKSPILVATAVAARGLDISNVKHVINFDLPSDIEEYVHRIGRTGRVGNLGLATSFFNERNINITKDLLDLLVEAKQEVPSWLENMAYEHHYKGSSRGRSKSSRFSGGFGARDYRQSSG
# Technique: RNA Bind-n-Seq
# Form: RNA
# Sample: in vitro
# Concentration: not given
# Setting: 4-mer, random 30-nt RNA, single round
# With: RocA, ADP, phosphate
# Relative to: input library
# Direction: higher = stronger binding
Sequence,4-mer enrichment [fold]
CCAA,0.769
CGCG,0.848
CUCU,0.622
UGUU,1.01
GAGA,2.33
AGAA,1.48
UACG,0.791
UCCU,0.762
AUUC,0.717
CUUU,0.737
UGGC,0.828
CAAU,0.735
UAUA,0.942
UAGC,0.804
UCCC,0.933
CCGA,0.934
AUGC,0.698
ACGU,0.753
UCGC,0.7
UAGG,1.32
UGGA,1.27
AGCA,0.954
AGCU,0.865
CCCG,0.867

# Set 3
# Target: Sal-like protein 4, full length isoform B (SALL4, Homo sapiens, UniProt Q9UJQ4-2, residues 1-616)
# Technique: universal PBM
# Form: double-stranded DNA, one strand shown
# Sample: in vitro
# Concentration: not given
# Setting: 8-mer, flanks averaged, mean of replicates
# Direction: higher = stronger binding
# Residues (chain): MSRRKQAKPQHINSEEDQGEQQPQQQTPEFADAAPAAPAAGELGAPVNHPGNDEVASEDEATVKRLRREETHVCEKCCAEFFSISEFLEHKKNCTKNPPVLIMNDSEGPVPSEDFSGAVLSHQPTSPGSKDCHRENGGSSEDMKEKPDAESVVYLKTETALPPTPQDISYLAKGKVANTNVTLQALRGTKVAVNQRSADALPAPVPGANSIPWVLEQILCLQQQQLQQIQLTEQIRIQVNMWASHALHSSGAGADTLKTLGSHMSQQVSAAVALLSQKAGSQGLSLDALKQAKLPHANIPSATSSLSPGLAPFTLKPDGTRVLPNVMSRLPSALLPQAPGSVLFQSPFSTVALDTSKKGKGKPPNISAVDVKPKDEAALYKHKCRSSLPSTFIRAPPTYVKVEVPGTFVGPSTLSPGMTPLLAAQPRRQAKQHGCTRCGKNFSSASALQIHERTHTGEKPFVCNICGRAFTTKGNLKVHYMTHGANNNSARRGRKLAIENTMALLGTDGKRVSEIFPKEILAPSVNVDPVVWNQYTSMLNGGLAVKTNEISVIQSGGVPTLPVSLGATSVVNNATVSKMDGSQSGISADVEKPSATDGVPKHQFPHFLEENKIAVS
Sequence,E-score
ACTGTTTA,0.222
CTTGCAGC,-0.145
AGCCGCCG,-0.265
ATCTTCTC,0.0837
CACGCAAA,-0.00649
CACGCCAA,-0.0906
TCCTGGCA,-0.0669
CTTTAGGA,0.0299
AGAGATAC,-0.0184
GATGACAA,0.17
GTATCACA,0.083
CCGACGCC,-0.223
ACGCCAGG,-0.191
ACACCCAC,-0.213
ACCGAGCT,-0.144
GGTGGAAC,-0.00806
GAACCCTA,0.0774

# Set 4
# Target: RNA binding protein fox-1 homolog 2, RRM domain, GST-SBP tag (RBFOX2, Homo sapiens, UniProt O43251-10, residues 100-194)
# Technique: RNA Bind-n-Seq
# Form: RNA
# Sample: in vitro
# Concentration: 365 nM
# Setting: natural RNA segment, single round, ends assumed
# Relative to: no-protein control
# Direction: higher = stronger binding
# Constant ends, left off below: GGGAGUUCUACAGUCCGACGAUC … UGGAAUUCUCGGGUGCCAA
Sequence,RBNS enrichment (R)
UUAUUGAUAACUGUCAUCAUGAAAUUAUCUCUCAAUAAUAAGAUAAAUAAACUAGCAUAUGAAUCAUUUUGUCUUUGCAUUUUUAAUGAGAAACUAUUAAUAAUCCUGAA,2.21
GCAGAUUUUUCUGAAAUGAGAUGUUUAGAUGAGCAUACUACUAAAGCAGAGUGGAAAAAUCUGUCUUUAUGGUAUGUUCUAGGUGUAUUGUGAUUUACUGUUAGAUUGCC,0.506
UGCUUCAGUCUCUGCCAUCUUCCAUGACUGCAUUUGUUCCUGCCUGCCUCGGCGGUAUCCACAGAAGACAGGCAAGAGGAUUGGAGCAGUUUUCUCACAGGUCUGCAAUU,1.91
CCUCACAUCCACCCUCCGCCCUUCCAAUUGCGCUCCCGGUUUGCAGUAAGGAAGAGGGAAGCUGAAGAAGAGGAACCUCCCCUGCCUGCCCCUGAAGCCUGGAUCAUUCG,1.16
CGCUAUCUGUUCCCUCACACAGUCGCUAAGUGGUCAAAUUGGUGCUUGAAAUUCAUUGGUCUAGUUGUAAUUUUUAUACAAAUUACACCAAGAGAUAAGAUGUCUUUUUU,0.593
UGUAUAGUAAAUCUAAGUCUUGAUUUUUAACUUUCUAUUGUAAAAAAUAAUAAUAUACAGAGUUUAAUAGAAGGUGAUGUUUUGGUUUUGUUUUCCCAGAGGCUGCCAUA,1.09
ACAAAGGCCUUCAUGGGAAGCUUGCACGAGCAUCUCAAGGUGGCUGGGCAUAGCAGAGUUCAACGAGGUUUCUACAGAAAAGUGCAAUCUUUGUUGUUUUUGUAUUUAUU,0.526
UGCACACCAGGAGUGUUUGCACAGAAUACUGGGUGUCUUCUGUCUUGAAGAAAGGCAGUGUCCCCGAGUCACACAGCACAGCAGGUAGCAUCAACUAGAGCUAGUUAAUG,0.406
UGGUAAAAGUAACUUACUUAAAAAACAUAUGUACACAUAUGUAUGCAAGUAUGUAUAUAUGUGUAUGCUCAGAUUAACUUCCAUAGGUACAUAAGUGAAAGAAGUCUCAG,0.448
UGAAGGAUUUAGACAAGGUUUUGAAAAGGAUAAUCAUGGGUUAGAAGGAAGUGUUUGAAAGUCACUUUGAAAGUUAGUUUUGGGCCAGCACGGUAGCUCACCCUUGUAAU,4.42
CUUGCUAUGUAUUAGCCGAUGUCUUUAGUGUUGAGCCUCUGGAUUCUGGGGUCUGGGCCAGUGGCCAUAGUGAAGCCUGGGAAUGAGUGUUACUGCAGCAUCUGGGCUGC,0.963
GAUCUCUAAACCUUCUUACAUAGAAAGCAUCCCUAUAAUCUAUAGGGAGAGGCGGGGAAUAAAGUGCCUAUUCUGCCAGUGUCUGGGACUUCUUUAUGGACAGAAGGGGA,0.559

# Set 5
# Target: Interferon regulatory factor 7, full length, phosphomimetic (IRF7, Homo sapiens, UniProt Q92985, residues 1-503, S471D/S472D/S475D/S476D/S477D/S483D/S484D/S487D)
# Technique: protein-binding microarray
# Form: double-stranded DNA, one strand shown
# Sample: in vitro
# Concentration: 2200 nM top
# Setting: 60-bp whole probe
# With: salmon DNA 0.4 mg/ml
# Relative to: random background probes
# Direction: higher = stronger binding
# Constant ends, left off below: GCCTAGCAC … GTCTTGATTCGCTTGACGCTGCTG
# Construct (chain): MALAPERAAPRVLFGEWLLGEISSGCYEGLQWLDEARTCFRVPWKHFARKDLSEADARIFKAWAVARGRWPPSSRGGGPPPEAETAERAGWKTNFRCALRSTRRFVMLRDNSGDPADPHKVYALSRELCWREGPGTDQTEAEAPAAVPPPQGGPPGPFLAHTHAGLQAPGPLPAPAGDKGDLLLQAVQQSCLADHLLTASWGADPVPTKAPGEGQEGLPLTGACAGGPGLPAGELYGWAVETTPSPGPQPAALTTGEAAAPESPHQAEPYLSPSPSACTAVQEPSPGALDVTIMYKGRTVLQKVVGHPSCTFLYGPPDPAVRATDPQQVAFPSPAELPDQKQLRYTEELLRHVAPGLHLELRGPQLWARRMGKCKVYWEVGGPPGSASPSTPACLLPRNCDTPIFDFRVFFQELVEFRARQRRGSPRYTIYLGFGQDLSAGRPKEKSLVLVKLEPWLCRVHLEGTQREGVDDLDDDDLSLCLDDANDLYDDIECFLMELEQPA
Sequence,fitted relative affinity
GGATCTTGCAGATGTCGCTGGGTGCTA,0.0604 z-score
GACGATTTCAGACTGCAGACGTGCTAG,0.545 z-score
TCAGTTTTGCTAAGTCAAACTGTGCTA,1.34 z-score
TCAATTTTTGCTTACGAACTGTGCTAG,1 z-score
TTAGGTTTCAGACTGGATTAGTGCTAG,0.591 z-score
CAAAAATGATTGGTTGAACAGTGCTAG,-0.359 z-score
TCATCACTTTCTTTAACACTGTGCTAG,1.55 z-score
TTAGGACTGGGACTGTGTTAGTGCTAG,-0.422 z-score
GACTATATCAGTATCGAGACGTGCTAG,0.249 z-score
TTAGGCCTGCTTTTCCTTTAGTGCTAG,1.41 z-score
TTAGATCTCAGTCTCGAATAGTGCTAG,0.136 z-score
GACGGCTTCGACTTTCGGGACGTGCTA,2.52 z-score
TTAGATTTCCGTTTCGATTAGTGCTAG,5.67 z-score
ATAGGTTTCGGGTTTCGGTTAGTGCTA,11.2 z-score
TCAAGAAAGTGAAATACCACTGTGCTA,-0.794 z-score
CACCCCGCCCCTCCTTGGCCGTGCTAG,-0.349 z-score
TTACGACTGCTACTGCTTTAGTGCTAG,0.66 z-score
TTGGATTTCAGTATCGATTAGTGCTAG,1.25 z-score
GACGAACTGAATCTCGAGACGTGCTAG,0.00776 z-score
TTAGAACTGACTTTCGATTAGTGCTAG,4.77 z-score
GACGGTTTCGATATCGGGACGTGCTAG,7.07 z-score

# Set 6
# Target: Histone acetyltransferase KAT6A, winged helix 1, GST fusion (KAT6A, Homo sapiens, UniProt Q92794, residues 1-85)
# Technique: protein binding microarray
# Form: double-stranded DNA, one strand shown
# Sample: in vitro
# Concentration: not given
# Setting: 8-mer, flanks averaged, mean of 2 arrays, mostly near background
# Relative to: not given
# Direction: higher = stronger binding
# Residues (chain): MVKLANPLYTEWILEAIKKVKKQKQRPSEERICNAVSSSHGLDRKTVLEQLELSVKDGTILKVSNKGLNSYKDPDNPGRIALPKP
Sequence,E-score
AGACGGCG,0.325
CACAGTAG,-0.176
CTGTCGCA,0.113
ACGCTTTA,0.0347
ATCTAGGG,-0.293
GTACGATA,-0.0775
ACTATTTG,-0.0788
AACACGAC,-0.117
CGACTTAG,-0.138
CGTAACAC,0.153
CAACCTTC,-0.0866
AGGTAGGG,-0.271
GACGAAGA,-0.005
AGATCGAA,-0.162
CGGCCTTC,0.336
ATCGTAGC,-0.0392
ATCACACC,-0.0889
CCGTCATC,0.223
GTGTAATA,0.0213
CGACATTC,-0.0371
ATAACGAA,-0.217
